# Published values pooled from the literature.
# Protocols differ between the studies behind these lines. ± marks the error that the study gave.
# ABCG2: Broad substrate specificity ATP-binding cassette transporter ABCG2 (ABCG2, Homo sapiens, UniProt Q9UNQ0)
# Chain of UniProt Q9UNQ0 (whole entry, looked up): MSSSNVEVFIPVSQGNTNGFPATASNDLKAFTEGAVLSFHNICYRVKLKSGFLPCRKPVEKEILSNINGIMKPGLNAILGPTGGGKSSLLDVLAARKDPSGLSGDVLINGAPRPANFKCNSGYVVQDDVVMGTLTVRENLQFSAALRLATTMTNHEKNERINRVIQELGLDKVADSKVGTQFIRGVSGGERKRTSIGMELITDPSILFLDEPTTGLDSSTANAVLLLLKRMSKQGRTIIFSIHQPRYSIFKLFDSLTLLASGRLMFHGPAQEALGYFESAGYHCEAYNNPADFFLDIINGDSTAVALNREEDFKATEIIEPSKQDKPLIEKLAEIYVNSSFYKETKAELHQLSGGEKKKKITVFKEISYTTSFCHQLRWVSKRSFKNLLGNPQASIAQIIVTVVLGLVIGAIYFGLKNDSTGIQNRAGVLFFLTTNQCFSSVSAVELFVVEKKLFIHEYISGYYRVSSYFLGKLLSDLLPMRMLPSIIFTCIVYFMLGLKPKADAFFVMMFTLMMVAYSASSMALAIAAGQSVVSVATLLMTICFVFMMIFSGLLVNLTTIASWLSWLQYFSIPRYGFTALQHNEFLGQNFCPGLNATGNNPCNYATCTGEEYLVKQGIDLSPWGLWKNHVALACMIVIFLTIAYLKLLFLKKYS
# Chain of UniProt Q9NPD5 (whole entry, looked up): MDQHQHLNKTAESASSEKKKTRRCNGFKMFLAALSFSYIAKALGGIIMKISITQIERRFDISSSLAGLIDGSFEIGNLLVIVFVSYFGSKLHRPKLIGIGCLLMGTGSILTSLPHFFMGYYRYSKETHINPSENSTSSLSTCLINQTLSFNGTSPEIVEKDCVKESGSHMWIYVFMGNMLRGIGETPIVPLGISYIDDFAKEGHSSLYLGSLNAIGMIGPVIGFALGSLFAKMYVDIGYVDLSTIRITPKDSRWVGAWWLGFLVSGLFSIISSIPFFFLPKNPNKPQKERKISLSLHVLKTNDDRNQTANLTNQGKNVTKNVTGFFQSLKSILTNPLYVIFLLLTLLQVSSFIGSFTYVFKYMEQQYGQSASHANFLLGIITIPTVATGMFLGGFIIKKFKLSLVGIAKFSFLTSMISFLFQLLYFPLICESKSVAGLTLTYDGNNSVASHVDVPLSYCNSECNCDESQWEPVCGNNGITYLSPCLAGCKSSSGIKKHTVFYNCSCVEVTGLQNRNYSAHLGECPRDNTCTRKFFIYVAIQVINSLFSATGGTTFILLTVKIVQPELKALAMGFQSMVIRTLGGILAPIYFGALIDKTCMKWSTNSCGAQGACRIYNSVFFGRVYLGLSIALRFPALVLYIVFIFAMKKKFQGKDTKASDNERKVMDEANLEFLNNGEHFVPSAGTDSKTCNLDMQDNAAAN
Compound,target or system,test,system,setting,how to read,quantity,result
Cc1noc2c(NC3CCOCC3)cc(-c3cccc(C(F)(F)F)c3)nc12,Vero-E6,CellTiter-Glo ATP,,"concentration not given, 72 h, retest 8-point duplicates","reference: DMSO 0%, hyamine -100%, more negative, more toxic",cytotoxicity efficacy,-58.8%
O=c1ccc2ccccc2o1,NHEK,cell count,,"concentration not given, 24 h, NRF2 oxidative stress panel",,chance response,0.01%
CCC(CC)COC(=O)[C@H](C)N[P@](=O)(OC[C@H]1O[C@@](C#N)(c2ccc3c(N)ncnn23)[C@H](O)[C@@H]1O)Oc1ccccc1,ABCG2,"transport, inhibitor",,"100 µM, 5 (unit not given), pH 7, added: CCK-8",,inhibition,53.8%
Cc1ccc(Cl)cc1N1CCN(CCCNc2ncnc3onc(-c4ccc(F)cc4)c23)CC1,Vero-E6,CellTiter-Glo ATP,,"72 h, first round 5-point","reference: DMSO 0%, hyamine -100%, more negative, more toxic",maximum response,-1.79%
CC1(C)[C@H](C=C(Cl)Cl)[C@H]1C(=O)OCc1cccc(Oc2ccccc2)c1,CES2 human cytosolic,,,"0.1 µM, age 6 months",,enzyme contribution,9.17%
CO[C@H]1C[C@@H]2CC[C@@H](C)[C@@](O)(O2)C(=O)C(=O)N2CCCC[C@H]2C(=O)O[C@H]([C@H](C)C[C@@H]2CC[C@@H](OC(=O)NCCOCCOCCOCCOCCOCCOCCOCCOCCC(=O)N3CCc4cc(Cn5nc(-c6ccc7oc(N)nc7c6)c6c(N)ncnc65)ccc4C3)[C@H](OC)C2)C[C@@H](O)[C@H](C)/C=C(\C)[C@@H](O)[C@@H](OC)C(=O)[C@H](C)C[C@H](C)/C=C/C=C/C=C/1C,,phase 1 dose escalation,advanced solid tumour patients,"intravenous, 10 mg weekly, grade ≥3",,deaths due to TEAEs,0%
O=C1c2c(O)c(=O)ccn2N([C@@H]2c3ccccc3SCc3c2ccc(F)c3F)[C@@H]2COCCN12,,,"BALB/c mice, plasma","oral, 5 mg/kg baloxavir marboxil, 2 h",,plasma concentration,42.7 ng/mL
COc1ccc2c(Sc3ccccc3)c(C(=O)NCCCN3CCCCC3)[nH]c2c1,Vero-E6,CellTiter-Glo ATP,,"concentration not given, 72 h, retest 8-point duplicates","reference: DMSO 0%, hyamine -100%, more negative, more toxic",cytotoxicity efficacy,-18.4%
CCN(CC)C(=O)[C@@H]1C=C2c3cccc4[nH]cc(c34)C[C@H]2N(C)C1,,item: hypersensitivity to odours,healthy volunteers,"dose not given, 12 to 24 h","reference: placebo, direction not given",List of Complaints score,2
CCc1ccc(Sc2cc(C(=O)NCCCN3CCCC(C)C3)c3ccccc3n2)cc1 (centres unmarked),Vero-E6,CellTiter-Glo ATP,,"72 h, retest 8-point duplicates","reference: DMSO 0%, hyamine -100%, more negative, more toxic",maximum response,-20.1%
CCCC(C(=O)c1ccc(O)c(O)c1)N1CCCC1 (centres unmarked),,LC-MS/MS,"rat, trunk blood plasma","subcutaneous, 2 mg/kg MDPV, 240 min",,plasma concentration,32.3 ± 3.5 ng/mL
COc1cc2c(Oc3ccc4[nH]c(C)cc4c3F)ccnc2cc1OCC1(N)CC1,,,paediatric refractory sarcoma patients,10 mg,,Dizzy incidence,0%
Cc1ccc(Nc2ccnc(N3CCC(C(=O)NCCCc4ccccc4)CC3)n2)cc1,Vero-E6,CellTiter-Glo ATP,,"72 h, retest 8-point duplicates","reference: DMSO 0%, hyamine -100%, more negative, more toxic",maximum response,-28.1%
CN/C(=N\[N+](=O)[O-])NCc1cnc(Cl)s1,,,soil,"0 days, nominal 3.3",,recovery,70%
C[C@H]1CN(N=O)CCc2ccc(Cl)cc21,TK6,,,"5 µM, 4 h, added: hamster liver S9",reference: vehicle,relative survival,104%
CC(=O)c1c(C)c2cnc(Nc3ccc(C4CCN(CCS(C)(=O)=O)CC4)cn3)nc2n(C2CCCC2)c1=O,,,"human, plasma","oral, 50 mg twice daily, day 21, multiple dose, added: letrozole",,k_el,4.17e-05 s⁻¹
C[C@]1(CO)Cc2ncn(-c3ccc(C#N)c(Cl)c3)c2C(=O)O1,,,human,40 mg single dose,,subjects with any TEAE,0%
O=C(NCCCN1CCCCCC1)c1ccc2c(c1)sc1nc(-c3ccccc3)cn12,Vero-E6,CellTiter-Glo ATP,,"concentration not given, 72 h, retest 8-point duplicates","reference: DMSO 0%, hyamine -100%, more negative, more toxic",cytotoxicity efficacy,-30.2%
Cc1oncc1C(=O)Nc1ccc(C(F)(F)F)cc1,ABCG2,"transport, inhibitor",,"100 µM, 5 (unit not given), pH 7, added: CCK-8",,inhibition,33.5%
CC(C)C[C@@H](N)C(=O)N[C@H](Cc1ccccc1)C(=O)N[C@H](Cc1ccccc1)C(=O)N[C@H](C)C(N)=O,NGF-differentiated PC-12 neurons,,,"10 µM, 24 h",reference: untreated,viability,98%
[Cl-].[Cl-].[Pt+2].[Ru+2].c1ccc(-c2nc3ccccc3nc2-c2ccccn2)nc1.c1cnc2c(c1)ccc1cccnc12.c1cnc2c(c1)ccc1cccnc12,Danio rerio,,embryos,"90 µM, 12 h",,survival rate,60 ± 3%
CC(C)C[C@@H](N)C(=O)N1CCC[C@@H]1C(=O)N[C@H](Cc1ccccc1)C(=O)N[C@H](Cc1ccccc1)C(=O)N[C@H](C)C(N)=O,NGF-differentiated PC-12 neurons,,,"5 µM, 24 h",reference: untreated,viability,100%
CCC(CC)COC(=O)[C@H](C)N[P@](=O)(OC[C@H]1O[C@@](C#N)(c2ccc3c(N)ncnn23)[C@H](O)[C@@H]1O)Oc1ccccc1,,,human,"intravenous, dose not given",,participants with adverse events,10.3%
CCCC(C(=O)c1ccc(O)c(OC)c1)N1CCCC1 (centres unmarked),,,rat,"subcutaneous, 4 mg/kg MDPV, 40 min",,brain-to-plasma ratio,0.4 ± 0.1
CCCN(CCC)CCNC(=O)c1cc(-c2ccc(Br)s2)nc2ccccc12,Vero-E6,CellTiter-Glo ATP,,"concentration not given, 72 h, second round 5-point","reference: DMSO 0%, hyamine -100%, more negative, more toxic",cytotoxicity efficacy,0%
CC(C)C[C@@H](NC(=O)[C@H](N)CCCCN)C(=O)N1CCC[C@@H]1C(=O)N[C@H](Cc1ccccc1)C(=O)N[C@H](Cc1ccccc1)C(=O)N[C@H](C)C(N)=O,NGF-differentiated PC-12 neurons,,,"160 µM, 24 h",reference: untreated,viability,89.2%
CCCCc1nc(Cl)c(CO)n1Cc1ccc(-c2ccccc2-c2nn[nH]n2)cc1,"SLCO1B3 (Homo sapiens, UniProt Q9NPD5)","transport, inhibitor",transiently transfected cells,"100 µM, 10 (unit not given), added: CCK-8",,inhibition,99.7%
Cc1ccc2c(NC(C)c3ccccc3)nc(N3CCNCC3)nc2c1 (centres unmarked),Vero-E6,CellTiter-Glo ATP,,"concentration not given, 72 h, second round 5-point","reference: DMSO 0%, hyamine -100%, more negative, more toxic",cytotoxicity efficacy,0%
CN1CC[C@@H](c2c(O)cc(O)c3c(=O)cc(-c4ccc(C(F)(F)F)cc4Cl)oc23)[C@@H]1CO,,item: Syncope,relapsed or refractory haematological malignancies,"oral, dose not given, grade 3 to 4, all arms",,patients with adverse event,5%
Fc1ccc(C2=CCNCC2)cc1,Salmonella typhimurium,"SOS response, SOS/umu test","TA1535/pSK1002, TGA medium","0.25 mg/mL, 4 h, added: 10% rat liver S9",reference: untreated,induction factor,1
CC(=O)N1CCC(C(=O)N2CCN3C(=O)c4cc(-c5ccccc5)ccc4NC(=O)C3C2)CC1 (centres unmarked),Escherichia coli,,WP2 uvrA,"5000 µg/plate, added: without S9",reference: vehicle control,revertant fold increase,0.9
CCCC(C(=O)c1ccc2c(c1)OCO2)N1CCCC1.Cl (racemic),,LC-MS/MS,"rat, trunk blood plasma","subcutaneous, 1 mg/kg, 240 min",,plasma concentration,8.1 ± 0.6 ng/mL

# For quick reference, copied from above:
Compound,target or system,test,system,setting,how to read,quantity,result
Fc1ccc(C2=CCNCC2)cc1,Salmonella typhimurium,"SOS response, SOS/umu test","TA1535/pSK1002, TGA medium","0.25 mg/mL, 4 h, added: 10% rat liver S9",reference: untreated,induction factor,1
CCC(CC)COC(=O)[C@H](C)N[P@](=O)(OC[C@H]1O[C@@](C#N)(c2ccc3c(N)ncnn23)[C@H](O)[C@@H]1O)Oc1ccccc1,ABCG2,"transport, inhibitor",,"100 µM, 5 (unit not given), pH 7, added: CCK-8",,inhibition,53.8%
COc1cc2c(Oc3ccc4[nH]c(C)cc4c3F)ccnc2cc1OCC1(N)CC1,,,paediatric refractory sarcoma patients,10 mg,,Dizzy incidence,0%
Cc1noc2c(NC3CCOCC3)cc(-c3cccc(C(F)(F)F)c3)nc12,Vero-E6,CellTiter-Glo ATP,,"concentration not given, 72 h, retest 8-point duplicates","reference: DMSO 0%, hyamine -100%, more negative, more toxic",cytotoxicity efficacy,-58.8%
